# Measurements from different studies.
# Protocols differ between the studies behind these lines.
SMILES,cell line,assay,conditions,scale,measurement,value
CN1CCCNC(=O)c2cccc(c2)C(=O)NCCCN(C)CCCNc2cccc3c2C(=O)c2cccc(c2C3=O)NCCC1,SAS,"RNA-Seq, measured: PITPNC1 mRNA","1 µM, 6 h",baseline: untreated cells,log2 fold change,1.89
CCN(CC)CC(=O)Nc1cccc(-n2cc(-c3ccc4ccc(-c5cn(-c6cccc(NC(=O)CN(CC)CC)c6)nn5)cc4c3)nn2)c1,RCC4,"PCR angiogenesis array, measured: PLAU","5 x IC50, 2 h, normoxia",baseline: untreated,fold regulation,-1.19
CNS(=O)(=O)Nc1nccc(Cc2c(C)c3ccc(Oc4ncccc4F)cc3oc2=O)c1F,BT-474,cell viability,7 days,,IC50,> 1 µM
CC(C)c1ccc(N(C)c2ccc3c(c2)OCC[C@H]3CNc2cnccc2C(=O)O)cc1,SW579,"cell viability, CellTiter-Glo",7 days,,IC50,≥ 10 µM
Cc1ncsc1-c1ccc(C(C)NC(=O)C2CC(O)CN2C(=O)C(NC(=O)CCCCCCCCCCN2CCCC(Nc3ncc(Cl)c(Nc4ccccc4S(=O)(=O)C(C)C)n3)C2)C(C)(C)C)cc1 (centres unmarked),22Rv1,"RNA-seq, measured: METAP1D mRNA",concentration not given,baseline: DMSO,log2 fold change,-1.12
Cn1ncc2cc(-c3cncc(Cl)c3N3CCC4(CCNC4=O)CC3)ccc21,LS174T,"gene expression, microarray, measured: KLF6 mRNA","concentration not given, 24 h",baseline: untreated cells,log2 fold change,1.61
COC(=O)c1cc(NC2=NC(=O)C(=Cc3ccc(C)cc3)S2)ccc1OC(C)=O,MCF7,"GC-MS, measured: Lactic acid",1 µM,baseline: DMSO,metabolite level,-0.19 fold change
O=C(C[Se]C(=O)c1cccnc1Nc1cccc(C(F)(F)F)c1)Nc1cccc(C(F)(F)F)c1,"NCI60 prostate subpanel (PC-3, DU-145)","total growth inhibition, inhibitor",five-dose,,mean TGI,3.58 µM
